Results collected from several papers.
A part holds a random share of what one study measured. Positions count from the first letter of the parent shown.

Study 1
Target: Sal-like protein 4, full length isoform B (SALL4, Homo sapiens, UniProt Q9UJQ4-2, residues 1-616)
Technique: universal PBM
Form: double-stranded DNA, one strand shown
Medium: in vitro
Tested at: not given
Setting: 8-mer, flanks averaged, mean of replicates
Direction: higher = stronger binding
Strand	E-score
ATAGGGGG	-0.0168
ACGGTTGA	0.00189
AACGCAGG	-0.151
GTTAACGA	0.0503
CAAGCGTG	0.0535
AATCTTCT	0.0138
AAGGAGTG	-0.0293
GCCCAATA	0.116
CGTTGCCA	0.0351
AAACCATA	0.325
CACAAATC	-0.0198
CATCGGAA	0.0258
GTAGTTTA	0.216

Study 2
Target: Interferon regulatory factor 5, full length, phosphomimetic (IRF5, Homo sapiens, UniProt Q13568-2, residues 1-514, K96S/S451D/S453D/S456D/S462D)
Technique: protein-binding microarray
Form: double-stranded DNA, one strand shown
Medium: in vitro
Tested at: 250 nM
Setting: 60-bp whole probe
Together with: salmon DNA 0.4 mg/ml
Relative to: random background probes
Direction: higher = stronger binding
Constant ends, left off below: GCCTAGCAC … GTCTTGATTCGCTTGACGCTGCTG
Strand	log fluorescence [z-score]
CATTTTATGGTATTTTTTTCGTGCTAG	1.14
TGGGCTACCTCTCTTAGAATGTGCTAG	-0.616
TTAGGTTCCGGTTTCGGTGAGTGCTAG	8.29
GACGGACTGGACACTGGTGACGTGCTA	-0.554
GACGAACTGAGACTCGAGACGTGCTAG	-0.361
GACAGTCTCCTTATCCTGACGTGCTAG	-0.0213
GAGAAAATGATTTTTTTCATGTGCTAG	0.972
GACGATTTCAGGTTTCGAGACGTGCTA	3.01
TCTCCTACAGGTTCTCTGAGAGTGCTA	-0.106
TTAGAACTGAGTATCAATTAGTGCTAG	1.27
TCATTTTGGTTTTCTCTAACTGTGCTA	2.48
GACGATTTCAGTTTCGAGATGTGCTAG	7.31
GAGAGAGCTTGTCTGCAGCCGTGCTAG	-0.473

Study 3
Target: Ras GTPase-activating protein-binding protein 1, full length (G3BP1, Homo sapiens, UniProt Q13283)
UniProt Q13283, sequence (whole entry, looked up): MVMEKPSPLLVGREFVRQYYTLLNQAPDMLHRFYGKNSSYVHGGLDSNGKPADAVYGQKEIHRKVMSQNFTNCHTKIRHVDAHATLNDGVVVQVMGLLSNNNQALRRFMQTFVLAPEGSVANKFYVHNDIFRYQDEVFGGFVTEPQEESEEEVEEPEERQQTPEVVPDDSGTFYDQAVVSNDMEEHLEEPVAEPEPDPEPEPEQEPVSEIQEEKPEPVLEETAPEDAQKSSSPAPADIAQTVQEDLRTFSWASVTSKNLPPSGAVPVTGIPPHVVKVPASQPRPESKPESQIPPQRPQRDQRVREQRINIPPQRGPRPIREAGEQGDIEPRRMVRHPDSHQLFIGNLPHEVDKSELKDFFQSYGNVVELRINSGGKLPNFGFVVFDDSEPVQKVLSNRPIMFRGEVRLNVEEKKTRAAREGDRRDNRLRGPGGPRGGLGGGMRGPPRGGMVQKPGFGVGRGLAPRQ
Technique: RNA Bind-n-Seq
Form: RNA
Medium: in vitro
Tested at: 200 nM
Setting: whole 134-nt RNA, ends assumed
Together with: 150 mM KCl
Relative to: input library
Direction: higher = stronger binding
Constant ends, left off below: GGGAGUUCUACAGUCCGACGAUC … UGGAAUUCUCGGGUGUCAAGG
Strand	log2 enrichment
UCCUGUGCUACACAUCGUAUGUACCGAAUCGGGCCCCCCCGGCCCCCCCGGCCCCCCCGGAAAGUAUUAUGUUACGCCGUUCGGAUCUGC	0.438
UGGCCCUGGUGGCAUGCGGGGAGGAAGAGCUGGCCUCAUGGAUCGUGGUGGUCCCGGUGGAAUGUUCAGAGGUGGCCGUGGUGGAGACAG	0.186
AGUCCUGUGCUACACAUCGUAUGUACCGAAUCAAAUUUUUAAAUUUUUAAAUUUAAAAAAGUAUUAUGUUACGCCGUUCGGAUCUGCACU	-1.89
AAGUCCUGUGCUACACAUCGUAUGUACCGAAUCGGUUUUUUUGGAAAAAAAGGUGGAAAGUAUUAUGUUACGCCGUUCGGAUCUGCACUU	-1.22
CACAGACAACACGUACCCACACAGACACAGAGGGAAGGGGUUGGGAUGGGGACAGGGUGCACAGCAGGGCGGGGUAGGACCCCAGCCCCU	1.9
AAGUCCUGUGCUACACAUCGUAUGUACCGAAUCGGUUUUUUUGGUUUUUUUGGUGGAAAGUAUUAUGUUACGCCGUUCGGAUCUGCACUU	-1.36

Study 4
Target: Prothrombin, mature alpha-thrombin (F2, Homo sapiens, UniProt P00734)
Technique: aptamer microarray, sandwich
Form: DNA with 2'F-ANA
Medium: in vitro
Tested at: 200 nM
Setting: whole 15-mer aptamer, many near background
Together with: Cy3 exosite-II aptamer, 400 nM
Direction: higher = stronger binding
Strand: GGTTGGTGTGGTTGG
Modification	mean fluorescence intensity [a.u.]
2'F-ANA at 2 5 6 7 9 12 14	69.3
2'F-ANA at 1 3 4 5 7 9 11 13	51.1
2'F-ANA at 2 3 4 5 6 8 10 11 12 15	56.5
2'F-ANA at 6 8 9 11 12 13 14 15	178
2'F-ANA at 2 6 8 13 15	246
2'F-ANA at 1 2 6 7 8 10 11 12 13 15	63.1
2'F-ANA at 1 2 4 5 8 11 12 13 14 15	57.2
2'F-ANA at 2 8 9 11 13 14	123
2'F-ANA at 2 3 4 9 10 11 13	220
2'F-ANA at 1 2 7 8 14 15	66.1
2'F-ANA at 1 2 3 5 6 9 12 13	82

Study 5
Target: Runt-related transcription factor 1, full length (RUNX1, Homo sapiens, UniProt Q01196-8, residues 1-480)
Technique: protein-binding microarray
Form: hairpin DNA
Medium: in vitro
Tested at: not given
Setting: whole hairpin DNA, median over replicate spots
Relative to: not given
Direction: higher = stronger binding
Strand	median fluorescence [a.u.]
GAGGCCTGTTGTGGTTGGCCTCCTGGCCAACCACAACAGGCCTCACACTC	3170
GAGGCCTGTCGCGGTTGGCCTCCTGGCCAACCGCGACAGGCCTCACACTC (5mC at 6)	2630
GAGGCCTGTTGTGGGTGGCCTCCTGGCCACCCACAACAGGCCTCACACTC	2130
CTCAGTTCCGTGGGCTGGACTCCTGTCCAGCCCACGGAACTGAGACACTC	1860
GAGGCCCACCCGCAACAGCCTCCTGGCTGTTGCGGGTGGGCCTCACACTC	2890
GAGGCCTGTTGTGGCGGGCCTCCTGGCCCGCCACAACAGGCCTCACACTC (5mC at 15)	2110
CTCAGTTCTGTGTGCTGGACTCCTGTCCAGCACACAGAACTGAGACACTC	1840
GAGGCCTGTCGCGGGTGGCCTCCTGGCCACCCGCGACAGGCCTCACACTC	2080
GAGGCCTGTTGTGGTCGGCCTCCTGGCCGACCACAACAGGCCTCACACTC (5mC at 16)	2610
CTCAGTTCAGTGGGCTGGACTCCTGTCCAGCCCACTGAACTGAGACACTC	1790
CTCAGTTCTGTGGGCTGGACTCCTGTCCAGCCCACAGAACTGAGACACTC (5mC at 15)	1950

Study 6
Target: Histone acetyltransferase KAT6A, winged helix 2, GST fusion (KAT6A, Homo sapiens, UniProt Q92794, residues 85-181)
Technique: protein binding microarray
Form: double-stranded DNA, one strand shown
Medium: in vitro
Tested at: not given
Setting: 8-mer, flanks averaged, mean of 2 arrays, mostly near background
Relative to: not given
Direction: higher = stronger binding
Target sequence (chain): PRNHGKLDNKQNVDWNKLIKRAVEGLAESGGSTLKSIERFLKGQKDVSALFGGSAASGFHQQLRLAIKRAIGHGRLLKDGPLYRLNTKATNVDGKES
Strand	E-score
ATCAGCTG	0.116
GCATCGCC	0.215
CACGCCAC	-0.0147
AGAAGGCG	0.0192
CATTTGAC	-0.0522
CTAACCAG	-0.0247
ACCACACC	-0.0546
GAATGAGA	-0.0459
AGGCCGTG	0.0436
AAGGACAC	0.0189
CGTGGAAG	-0.0135
ACCTGACT	-0.046
AACTAATT	0.0653
CCGAGGAC	0.0574
CATCCGCG	0.0702
CGACAATA	-0.0417
CGGATAAA	0.0971
ACCCCACG	-0.16
ACGCCTAA	-0.0479

Study 7
Target: CCND3, cyclin fold, Cln2 fusion (human)
Technique: yeast growth competition, sequencing
Medium: yeast
Setting: strong parent motif
Relative to: not given
Direction: higher = stronger binding
Starting sequence: INSM1 docking peptide (human); PKAIRKLHFEDEV; partner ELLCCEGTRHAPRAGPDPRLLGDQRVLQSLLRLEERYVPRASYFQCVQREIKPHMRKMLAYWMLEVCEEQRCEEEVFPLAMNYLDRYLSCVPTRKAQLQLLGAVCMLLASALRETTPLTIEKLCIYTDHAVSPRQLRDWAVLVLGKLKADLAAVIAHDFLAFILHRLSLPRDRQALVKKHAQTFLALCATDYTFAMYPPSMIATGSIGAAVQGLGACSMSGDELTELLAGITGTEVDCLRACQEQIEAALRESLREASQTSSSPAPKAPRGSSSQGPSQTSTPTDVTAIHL
Variant	normalised enrichment score
I4S	0.888
E12H	1.14
H8S	1.29
L7K	-0.0913
I4A	2.43
F9S	-0.0333
K2L	0.681
A3V	0.615
D11K	0.242

Study 8
Target: PABPC1L2, full length, GST fusion (mouse, UniProt A0ABA7IW68)
Technique: RNAcompete
Form: RNA
Medium: in vitro
Tested at: 20 nM
Setting: 7-mer, probes averaged, single round
Relative to: mean of 7-mers
Direction: higher = stronger binding
Residues (chain): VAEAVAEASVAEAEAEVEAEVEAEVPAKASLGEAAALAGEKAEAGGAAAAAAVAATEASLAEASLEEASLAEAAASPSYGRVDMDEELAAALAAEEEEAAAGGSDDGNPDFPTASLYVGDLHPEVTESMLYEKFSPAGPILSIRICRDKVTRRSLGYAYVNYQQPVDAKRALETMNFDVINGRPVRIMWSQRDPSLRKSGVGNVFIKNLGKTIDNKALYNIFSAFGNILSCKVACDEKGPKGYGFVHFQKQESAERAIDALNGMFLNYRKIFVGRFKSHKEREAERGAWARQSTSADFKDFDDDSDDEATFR
Strand	7-mer Z-score
UAAGCCA	-0.229
GUUGUCG	-0.434
CCAAUCA	-0.0464
UUAGUCU	-0.304
ACUCAUA	-0.273
CACCAUG	-0.11
UCGGUCA	-0.331
GCCCCGU	-0.364
GGUGAUC	0.0515
AUUUCCA	-0.219
GAAGUAA	0.0678
CUUUAGG	0.115
ACGCAUG	-0.182
AUUUAUG	0.256

For quick reference, copied from above (study 4):
Modification	mean fluorescence intensity [a.u.]
2'F-ANA at 2 5 6 7 9 12 14	69.3
2'F-ANA at 1 3 4 5 7 9 11 13	51.1
2'F-ANA at 2 3 4 5 6 8 10 11 12 15	56.5
2'F-ANA at 6 8 9 11 12 13 14 15	178
2'F-ANA at 2 6 8 13 15	246
2'F-ANA at 1 2 6 7 8 10 11 12 13 15	63.1
2'F-ANA at 1 2 4 5 8 11 12 13 14 15	57.2
2'F-ANA at 2 8 9 11 13 14	123
2'F-ANA at 2 3 4 9 10 11 13	220
2'F-ANA at 1 2 7 8 14 15	66.1
